Results from different studies.
Each line is one published result; not all experiments were run side by side. ± marks the error that the study gave.
Target: Mu-type opioid receptor (OPRM1, Homo sapiens, UniProt P35372)

Sequences of proteins named here, by UniProt entry; tags and fusion partners are left off.
UniProt P35372, whole entry: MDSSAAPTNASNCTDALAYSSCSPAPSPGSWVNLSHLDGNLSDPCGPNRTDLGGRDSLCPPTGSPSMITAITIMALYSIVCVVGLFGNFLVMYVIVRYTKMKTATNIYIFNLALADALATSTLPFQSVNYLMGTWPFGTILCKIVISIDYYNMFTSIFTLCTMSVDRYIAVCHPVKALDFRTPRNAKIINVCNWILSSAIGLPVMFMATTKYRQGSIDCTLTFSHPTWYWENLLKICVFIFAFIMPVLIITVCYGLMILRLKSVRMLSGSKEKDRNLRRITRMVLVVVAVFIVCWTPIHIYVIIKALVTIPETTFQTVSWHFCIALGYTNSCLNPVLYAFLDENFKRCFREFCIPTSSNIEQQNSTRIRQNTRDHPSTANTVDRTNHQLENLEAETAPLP

SMILES | assay | test system | conditions | measurement | value
CCCCCc1cc(O)c([C@@H]2C[C@@H](C)CC[C@H]2C(C)C)c(O)c1 | cAMP level, antagonist | HEK293 expressing human µ-opioid receptor | with: fentanyl 500 pM (EC95) | IC50 | 1400 nM
Oc1cccc(N2[C@@H]3CC[C@H]2CN(CCCc2ccccc2)C3)c1 | cAMP, antagonist | – | human receptor, with: fentanyl EC90 | IC50 | > 10000 nM
C=C[C@H]1[C@H]2CCC[C@]1(c1cccc(O)c1)CCN2CCc1cccs1 | forskolin-induced cAMP, antagonist | – | with: fentanyl at EC90 | IC50 | > 10000 nM
CN(C)[C@]1(c2ccccc2)CC[C@]2(CC1)OCCc1c3cc(F)ccc3[nH]c12 | cAMP, agonist | – | human receptor | EC50 | 0.32 ± 0.07 nM
CN(C)[C@]1(c2ccccc2)CC[C@]2(CC1)OCCc1c3cc(F)ccc3[nH]c12 | binding | CHO cell membranes | – | Kd | 3.77 nM
C=C(C)[C@H]1CC[C@]2(C)C[C@H]1c1c(O)cc(CCCCC)cc1O2 | cAMP level, antagonist | HEK293 expressing human µ-opioid receptor | with: fentanyl 500 pM (EC95) | IC50 | 349 nM
Oc1cccc(N2[C@@H]3CC[C@H]2CN(CC2CC2)C3)c1 | cAMP, antagonist | – | human receptor, with: fentanyl EC90 | IC50 | > 10000 nM
CCC1C(=O)N(C2CCN(C(C)CC(c3ccccc3)c3ccccc3)CC2)c2ccccc21 (centres unmarked) | radioligand displacement | – | with: [3H]DAMGO | Ki | 100 ± 4.17 nM
C=C(I)[C@@H]1CC[C@@]2(C)C[C@@H]1c1c(O)cc(CCCCC)cc1O2 | cAMP level, antagonist | HEK293 expressing human µ-opioid receptor | with: fentanyl 500 pM (EC95) | IC50 | 556 nM
CCC1C(=O)N(C2CCN(C/C=C/c3ccccc3)CC2)c2ccccc21 (centres unmarked) | radioligand displacement | – | with: [3H]DAMGO | Ki | 33.4 ± 6.4 nM
C=C(C)[C@@H]1CCC(C)=C[C@H]1c1c(O)cc(CC(C)C)cc1O | cAMP level, antagonist | HEK293 expressing human µ-opioid receptor | with: fentanyl 500 pM (EC95) | IC50 | 242 nM
CCC1C(=O)N(C2CCN(C3CCc4ccccc4C3)CC2)c2ccccc21 (centres unmarked) | agonist | cell membranes | – | EC50 | 22.3 ± 0.1 nM
COc1cc(NC2(CNC(=O)CNC(=N)N)CCN(Cc3ccccc3)CC2)cc(OC)c1 | binding | HEK293 membranes | with: [3H]DAMGO | Ki | > 5000 nM
C=CCN1C[C@H]2CC[C@@H](C1)N2c1cccc(O)c1 | cAMP, antagonist | – | human receptor, with: fentanyl EC90 | IC50 | > 10000 nM
N=C(N)NCC(=O)NCC1(Nc2ccccc2)CCN(Cc2ccccc2)CC1 | binding | HEK293 membranes | with: [3H]DAMGO | Ki | 2020 ± 170 nM
CCC1C(=O)N(C2CCN(CCCCc3ccc(-c4ccccc4)cc3)CC2)c2ccccc21 (centres unmarked) | radioligand displacement | – | with: [3H]DAMGO | Ki | 168 ± 33 nM
C=Cc1cc(O)c([C@@H]2C=C(C)CC[C@H]2C(=C)C)c(O)c1 | cAMP level, antagonist | HEK293 expressing human µ-opioid receptor | with: fentanyl 500 pM (EC95) | IC50 | 190 nM
CCC1C(=O)N(C2CCN(CCCc3ccccc3)CC2)c2ccccc21 (centres unmarked) | agonist | cell membranes | – | EC50 | 673 ± 334 nM
C=C[C@@H]1[C@H]2CCC[C@]1(c1cccc(O)c1)CCN2C | forskolin-induced cAMP, antagonist | – | with: fentanyl at EC90 | IC50 | > 10000 nM
O=C1Cc2ccccc2N1C1CCN([C@@H]2CC[C@@H]3CCCc4cccc2c43)CC1 | radioligand displacement | – | with: [3H]DAMGO | Ki | 30.3 ± 6.55 nM
C=C(C)[C@@H]1CCC(C)=C[C@H]1c1c(O)cc(CCCC)cc1O | cAMP level, antagonist | HEK293 expressing human µ-opioid receptor | with: fentanyl 500 pM (EC95) | IC50 | 173 nM
CCC1C(=O)N(C2CCN([C@H]3CC[C@@H]4CCCc5cccc3c54)CC2)c2ccccc21 (relative stereo) | radioligand displacement | – | with: [3H]DAMGO | Ki | 8.19 ± 0.16 nM
C=C[C@H]1[C@H]2CCC[C@]1(c1cccc(O)c1)CCN2CCc1ccc(O)cc1 | forskolin-induced cAMP, antagonist | – | with: fentanyl at EC90 | IC50 | 273 ± 123 nM

Some of these lines once more:
SMILES | assay | test system | conditions | measurement | value
COc1cc(NC2(CNC(=O)CNC(=N)N)CCN(Cc3ccccc3)CC2)cc(OC)c1 | binding | HEK293 membranes | with: [3H]DAMGO | Ki | > 5000 nM
C=CCN1C[C@H]2CC[C@@H](C1)N2c1cccc(O)c1 | cAMP, antagonist | – | human receptor, with: fentanyl EC90 | IC50 | > 10000 nM
N=C(N)NCC(=O)NCC1(Nc2ccccc2)CCN(Cc2ccccc2)CC1 | binding | HEK293 membranes | with: [3H]DAMGO | Ki | 2020 ± 170 nM
